{"data": "Results from different studies", "note": "Numbers after ± are the reported error."}
{"Structure (SMILES)": "CC(C)(Sc1ccncc1-c1ccc(C#N)c2ccccc12)C(=O)O", "system": "male, plasma", "conditions": "oral, 15 mg, severe renal impairment, fasted", "Tmax [h]": 2}
{"Structure (SMILES)": "CC1=C2C[C@H]3[C@@H](CC[C@@H]4C[C@H](NS(C)(=O)=O)CC[C@@]43C)[C@@H]2CC[C@@]2(C1)O[C@@H]1C[C@H](C)CN[C@H]1[C@H]2C", "system": "patients, plasma", "conditions": "oral, 160 mg daily, day 22, cycle 1", "Tmax [h]": 4.99}
{"Structure (SMILES)": "CC(C)=CCC[C@](C)(O[C@@H]1O[C@H](CO)[C@@H](O)[C@H](O)[C@H]1O)[C@H]1CC[C@]2(C)[C@@H]1[C@H](O)C[C@@H]1[C@@]3(C)CC[C@H](O[C@@H]4O[C@H](CO)[C@@H](O)[C@H](O)[C@H]4O)C(C)(C)[C@@H]3CC[C@]12C", "assay": "LC-MS/MS", "system": "healthy female volunteers, serum", "conditions": "oral, 3 g red ginseng", "Tmax [h]": "12.8 ± 4.5"}
{"Structure (SMILES)": "N[C@]1(C(=O)O)[C@H]2[C@@H](C[C@@H]1F)[C@@H]2C(=O)O", "system": "healthy subjects, both sexes, plasma", "conditions": "oral, 10 mg TS-134 single dose, fed, median", "Tmax [h]": 4}
{"Structure (SMILES)": "COc1cc(OC)c(/C=C/S(=O)(=O)Cc2ccc(OC)c(NCC(=O)O)c2)c(OC)c1", "system": "cancer patients, phase I, plasma", "conditions": "oral, 560 mg twice daily, day 21 cycle 1", "Tmax [h]": "1.08 ± 0.41"}
{"Structure (SMILES)": "COc1ccc2c3c1O[C@H]1C[C@@H](OC(=O)c4ccccc4)C=C[C@@]31CCN(C)C2", "system": "healthy elderly men, plasma", "conditions": "intranasal, 22 mg, single dose", "Tmax [h]": 0.6}
{"Structure (SMILES)": "CN[C@H](CC(C)C)C(=O)N[C@H]1C(=O)N[C@@H](CC(N)=O)C(=O)N[C@H]2C(=O)N[C@H]3C(=O)N[C@H](C(=O)N[C@H](C(=O)O)c4cc(O)cc(O)c4-c4cc3ccc4O)[C@H](O)c3ccc(c(Cl)c3)Oc3cc2cc(c3O[C@@H]2O[C@H](CO)[C@@H](O)[C@H](O)[C@H]2O[C@H]2C[C@](C)(N)[C@H](O)[C@H](C)O2)Oc2ccc(cc2Cl)[C@H]1O", "assay": "microdialysis", "system": "pig (Danish Landrace), cortical bone", "conditions": "iv infusion, 1000 mg over 100 min, with: meropenem co-administered", "Tmax [h]": 5.5}
{"Structure (SMILES)": "Cc1ccc(NC(=O)c2ccc(CN3CCN(C)CC3)cc2)cc1Nc1nccc(-c2cncc(-c3oncc3C)c2)n1", "system": "Parkinson's disease patients, plasma", "conditions": "oral, 50.0 mg once daily, day 7, 7-day dosing, mean", "Tmax [h]": 3.63}
{"Structure (SMILES)": "CN1CC[C@@H](NC(=O)Nc2ccc(C#N)cc2)C[C@@H]1c1nc2ccccc2[nH]1", "system": "Japanese patients", "conditions": "oral, 50 mg once daily, cycle 1 day 21, median", "Tmax [h]": 4}
{"Structure (SMILES)": "O=C(N[C@H]1CCN(CC2CC2)C[C@@H]1C(=O)NC1(c2ncccn2)CC1)c1cc(-c2ccc(F)cc2F)on1", "system": "healthy male subjects", "conditions": "oral, 10 mg, fed, median, with: itraconazole 200 mg multiple doses", "Tmax [h]": 2}
{"Structure (SMILES)": "CNCc1ccc(-c2[nH]c3cc(F)cc4c3c2CCNC4=O)cc1", "assay": "noncompartmental analysis", "system": "patients, plasma", "conditions": "oral, 600 mg, day 21, with: bevacizumab", "Tmax [h]": "5 ± 1.4"}
{"Structure (SMILES)": "CCOc1ccc(Cc2cc([C@@H]3S[C@H](CO)[C@@H](O)[C@H](O)[C@H]3O)c(OC)cc2C)cc1", "system": "Japanese type 2 diabetes patients, plasma", "conditions": "oral, 5 mg single dose, eGFR below 30 mL/min/1.73 m^2, median", "Tmax [h]": 1.5}
{"Structure (SMILES)": "C[C@]12C=CC(=O)C=C1CC[C@@H]1[C@@H]2[C@@H](O)C[C@@]2(C)[C@H]1C[C@H]1O[C@@H](C3CCCCC3)O[C@]12C(=O)CO", "system": "children with asthma, serum", "conditions": "inhaled, 160 µg ciclesonide, day 7, HFA-MDI with spacer", "Tmax [h]": "0.69 ± 0.044"}
{"Structure (SMILES)": "CNC(=O)c1ccccc1Sc1ccc2c(/C=C/c3ccccn3)n[nH]c2c1", "system": "children and adolescents, refractory solid tumours, plasma", "conditions": "oral, dose not given", "Tmax [h]": "~2"}
{"Structure (SMILES)": "CC(C)=CCC[C@](C)(O[C@@H]1O[C@H](CO)[C@@H](O)[C@H](O)[C@H]1O)[C@H]1CC[C@]2(C)[C@@H]1[C@H](O)C[C@@H]1[C@@]3(C)CC[C@H](O[C@@H]4O[C@H](CO)[C@@H](O)[C@H](O)[C@H]4O[C@@H]4O[C@H](CO)[C@@H](O)[C@H](O)[C@H]4O)C(C)(C)[C@@H]3CC[C@]12C", "assay": "LC-MS/MS", "system": "healthy male volunteers, serum", "conditions": "oral, 3 g red ginseng", "Tmax [h]": "6.67 ± 4.55"}
{"Structure (SMILES)": "C[C@H]1CN(C(=O)CC#N)[C@]12CCN(c1ncnc3[nH]ccc13)C2", "system": "atopic dermatitis patients, plasma", "conditions": "topical, 5 g of 3% ointment twice daily, day 7 morning, median", "Tmax [h]": 4}
{"Structure (SMILES)": "CC#CC(=O)N1CCC[C@H]1c1nc(-c2ccc(C(=O)Nc3ccccn3)cc2)c2c(N)nccn12", "system": "Japanese patients, plasma", "conditions": "oral, 100 mg twice daily, day 8, fasting, multiple dose, median", "Tmax [h]": 0.615}
{"Structure (SMILES)": "Cc1ccc(Sc2ccccc2N2CCNCC2)c(C)c1", "system": "healthy men, plasma", "conditions": "oral, 20 mg once daily, fed, day 12", "Tmax [h]": 8}
{"Structure (SMILES)": "CN1C(=O)[C@@H](NC(=O)c2nnc(Cc3ccccc3)[nH]2)COc2ccccc21", "system": "healthy men, plasma", "conditions": "oral, 60 mg once daily, day 14, median", "Tmax [h]": 2}
{"Structure (SMILES)": "NC(=O)c1cnc2[nH]ccc2c1N[C@@H]1[C@@H]2CC3C[C@H]1C[C@@](O)(C3)C2", "system": "Japanese, normal hepatic function, plasma", "conditions": "oral, 150 mg single dose, median", "Tmax [h]": 1.25}
{"Structure (SMILES)": "CC(C(=O)O)c1ccc(-c2ccccc2)c(F)c1 (stereo not drawn)", "system": "healthy volunteers, plasma", "conditions": "oral, 100 mg, median, with: control beverage 250 mL", "Tmax [h]": 1.75}
{"Structure (SMILES)": "O=C1CCc2ccc(OCCCCN3CCN(c4cccc(Cl)c4Cl)CC3)cc2N1", "system": "healthy Japanese men, CYP2D6 IM, plasma", "conditions": "oral, 3 mg aripiprazole single, with: fluvoxamine 100 mg/day", "Tmax [h]": "3 ± 1.8"}
{"Structure (SMILES)": "NC(=O)c1cnc2[nH]ccc2c1N[C@@H]1[C@@H]2CC3C[C@H]1C[C@@](O)(C3)C2", "system": "healthy Japanese men, plasma", "conditions": "oral, 60 mg, single dose fasted median", "Tmax [h]": 1.3}
{"Structure (SMILES)": "COc1cc2c(cc1OC)CN(CCc1ccc(NC(=O)c3cc(OC)c(OC)cc3NC(=O)c3cnc4ccccc4c3)cc1)CC2", "system": "human, plasma", "conditions": "intravenous infusion, 8 mg/kg", "Tmax [h]": 2.82}
{"Structure (SMILES)": "CCCN1CC(c2ccc(S(C)(=O)=O)cc2)=C(c2ccc(C)cc2)C1=O", "system": "healthy Chinese, non-elderly, plasma", "conditions": "oral, 100 mg, fasting", "Tmax [h]": 2}
{"Structure (SMILES)": "CO[C@H]1C[C@@H]2CC[C@@H](C)[C@@](O)(O2)C(=O)C(=O)N2CCCC[C@H]2C(=O)O[C@H]([C@H](C)C[C@@H]2CC[C@@H](OP(C)(C)=O)[C@H](OC)C2)CC(=O)[C@H](C)/C=C(\\C)[C@@H](O)[C@@H](OC)C(=O)[C@H](C)C[C@H](C)/C=C/C=C/C=C/1C", "assay": "HPLC-MS/MS", "system": "Japanese patients, whole blood", "conditions": "oral, 20 mg, day 1, cycle 1, median", "Tmax [h]": 7.93}
{"Structure (SMILES)": "Nc1ncc(-c2cnn(CCO)c2)c2scc(-c3ccc(NC(=O)Nc4cccc(F)c4)cc3)c12", "system": "patients, plasma", "conditions": "oral, 320 mg twice weekly, day 15", "Tmax [h]": "20 ± 11.3"}
{"Structure (SMILES)": "Nc1cc(F)ccc1NC(=O)c1ccc(CNC(=O)/C=C/c2cccnc2)cc1", "system": "Japanese patients, plasma", "conditions": "oral, 40 mg twice weekly, cycle 1 day 25, median", "Tmax [h]": 4.19}
{"Structure (SMILES)": "C[C@@H](O)[C@H]1C(=O)N2C(C(=O)O)=C(S[C@@H]3CN[C@H](C(=O)N(C)C)C3)[C@H](C)[C@H]12", "assay": "microdialysis", "system": "Danish Landrace pig, subcutaneous adipose tissue", "conditions": "intravenous infusion, 1000 mg over 10 min, with: vancomycin", "Tmax [h]": 0.433}
{"Structure (SMILES)": "CCc1cc2c(cc1N1CCC(N3CCOCC3)CC1)C(C)(C)c1[nH]c3cc(C#N)ccc3c1C2=O", "system": "severe hepatic impairment patients, plasma, total", "conditions": "oral, 300 mg single dose, fed, median", "Tmax [h]": 7}
{"Structure (SMILES)": "Cc1nc(-c2ccc(OCC(C)C)c(C#N)c2)sc1C(=O)O", "system": "healthy men, plasma", "conditions": "oral, 40 mg once daily, day 7 or 21, median", "Tmax [h]": 1.5}
{"Structure (SMILES)": "CCC(CC)O[C@@H]1C=C(C(=O)O)C[C@H](N)[C@H]1NC(C)=O", "system": "healthy Indian subjects, fed, plasma", "conditions": "oral, 75 mg oseltamivir phosphate, test capsule formulation", "Tmax [h]": "6.15 ± 1.15"}
{"Structure (SMILES)": "CS(=O)(=O)n1cc2c(n1)CN([C@H]1CO[C@H](c3cc(F)ccc3F)[C@@H](N)C1)C2", "system": "healthy Japanese men, plasma", "conditions": "oral, 1 mg once weekly, day 1", "Tmax [h]": 2}
{"Structure (SMILES)": "NS(=O)(=O)c1cc(Cl)c(Cl)c(S(N)(=O)=O)c1", "system": "healthy volunteers, plasma", "conditions": "oral, 50 mg, single dose, median", "Tmax [h]": 2.5}
{"Structure (SMILES)": "CC(=O)Nc1ccc(O[C@@H]2O[C@H](C(=O)O)[C@@H](O)[C@H](O)[C@H]2O)cc1", "system": "healthy volunteers, both sexes, plasma", "conditions": "oral, 650 mg acetaminophen, day 2, with: favipiravir, acute", "Tmax [h]": 2.2}
{"Structure (SMILES)": "CO/N=C1\\C[C@]2(C[C@@H]3C[C@@H](C/C=C(\\C)C[C@@H](C)/C=C/C=C4\\CO[C@@H]5[C@H](O)C(C)=C[C@@H](C(=O)O3)[C@]45O)O2)O[C@H](/C(C)=C/C(C)C)[C@H]1C", "assay": "HPLC, non-compartmental", "system": "Corriedale lambs, parasitized, plasma", "conditions": "oral, 0.2 mg/kg", "Tmax [h]": "19 ± 2.16"}
